Assay results gathered from unrelated publications.
Protocols differ between the studies behind these lines. ± gives the spread as reported.
CYP2C19: Cytochrome P450 2C19 (CYP2C19, Homo sapiens, UniProt P33261)
Sequence of UniProt P33261 (whole entry, looked up): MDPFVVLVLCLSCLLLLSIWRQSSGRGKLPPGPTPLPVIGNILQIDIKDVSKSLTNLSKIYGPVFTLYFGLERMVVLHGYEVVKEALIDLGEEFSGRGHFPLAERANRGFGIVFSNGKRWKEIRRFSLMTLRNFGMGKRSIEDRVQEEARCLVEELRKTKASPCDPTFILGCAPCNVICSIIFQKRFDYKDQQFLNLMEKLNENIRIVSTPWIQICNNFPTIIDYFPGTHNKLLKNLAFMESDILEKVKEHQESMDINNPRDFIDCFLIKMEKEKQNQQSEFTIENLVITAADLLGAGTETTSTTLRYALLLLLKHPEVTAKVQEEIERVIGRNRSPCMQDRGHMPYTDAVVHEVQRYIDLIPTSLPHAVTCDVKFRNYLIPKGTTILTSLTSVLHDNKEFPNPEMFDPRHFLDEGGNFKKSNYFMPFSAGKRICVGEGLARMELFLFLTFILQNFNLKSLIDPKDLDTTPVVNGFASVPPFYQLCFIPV
Sequence of UniProt P11712 (whole entry, looked up): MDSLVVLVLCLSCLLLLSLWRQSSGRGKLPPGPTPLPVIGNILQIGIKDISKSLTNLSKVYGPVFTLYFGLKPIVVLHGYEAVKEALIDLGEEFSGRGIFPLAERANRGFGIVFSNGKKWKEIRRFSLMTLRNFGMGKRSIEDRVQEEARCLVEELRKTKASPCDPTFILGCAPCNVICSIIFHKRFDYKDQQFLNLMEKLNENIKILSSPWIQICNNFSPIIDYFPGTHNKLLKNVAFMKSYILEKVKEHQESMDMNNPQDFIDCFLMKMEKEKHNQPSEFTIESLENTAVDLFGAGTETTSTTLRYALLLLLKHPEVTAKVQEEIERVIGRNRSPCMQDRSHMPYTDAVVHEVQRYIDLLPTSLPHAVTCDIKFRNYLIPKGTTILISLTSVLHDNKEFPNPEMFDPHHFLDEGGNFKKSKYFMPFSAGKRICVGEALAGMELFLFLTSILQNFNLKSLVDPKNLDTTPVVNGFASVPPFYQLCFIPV
Sequence of UniProt Q06520 (whole entry, looked up): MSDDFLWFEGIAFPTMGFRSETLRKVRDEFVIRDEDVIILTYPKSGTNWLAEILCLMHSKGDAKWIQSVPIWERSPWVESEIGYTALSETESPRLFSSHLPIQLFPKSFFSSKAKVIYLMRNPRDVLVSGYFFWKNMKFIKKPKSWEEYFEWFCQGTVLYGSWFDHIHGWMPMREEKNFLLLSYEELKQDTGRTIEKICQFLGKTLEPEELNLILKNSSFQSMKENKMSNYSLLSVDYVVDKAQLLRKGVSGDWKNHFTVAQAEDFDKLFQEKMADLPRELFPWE
Sequence of UniProt P61073 (whole entry, looked up): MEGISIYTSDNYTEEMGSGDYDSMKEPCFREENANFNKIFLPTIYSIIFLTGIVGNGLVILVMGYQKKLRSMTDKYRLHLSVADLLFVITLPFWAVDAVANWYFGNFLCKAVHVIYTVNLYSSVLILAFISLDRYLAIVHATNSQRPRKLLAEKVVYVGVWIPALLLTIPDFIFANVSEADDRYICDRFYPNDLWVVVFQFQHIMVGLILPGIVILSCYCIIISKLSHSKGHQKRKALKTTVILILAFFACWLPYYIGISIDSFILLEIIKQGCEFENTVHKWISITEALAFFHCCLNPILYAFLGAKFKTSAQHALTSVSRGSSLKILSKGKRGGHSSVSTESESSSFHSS

Compound	target or system	assay	test system	conditions	how to read	measurement	result
O=C1Cc2cc(CCN3CCN(C4=NS(=O)(=O)c5ccccc54)CC3)c(Cl)cc2N1	Cytochrome P450 2C9 (CYP2C9, Homo sapiens, UniProt P11712)	inhibitor	human liver microsomes	10 µM, pH 7.4, added: diclofenac		inhibition	15.7%
C[C@]12CC[C@H](O)CC1CCC1C2[C@H](O)C(=O)[C@]2(C)[C@@H](c3ccc(=O)oc3)CC[C@]12O (stereo partly shown)	Sulfotransferase 2A1 (SULT2A1, Homo sapiens, UniProt Q06520)	sulfation, substrate	recombinant enzyme	pH 7.4		CLint	75.9 µL/min/mg
C[C@@](O)(C(F)F)[C@H](NC(=O)c1ccc(C#CC#CC2CC2)cc1)C(=O)NO			dog, plasma	oral, 50 mg/kg		Cmax	7.7 µg/mL
CC[C@H](C)C(=O)N1CCC(NC(=O)Nc2ccc(OC(F)(F)F)c(F)c2)CC1			human, plasma	oral, 8 mg, single dose, healthy volunteers		AUC	1870 ng·h/mL
CN(C)C(CNC(=O)Nc1cc(C(F)(F)F)ccc1N1CCOCC1)c1ccncc1 (stereo not shown)			mouse, serum	intraperitoneal, 120 mg/kg single dose		blood urea nitrogen	27 mg/dL
COc1cc2c(=O)cc(-c3ccccc3)oc2c2c1OC(C)(C)C=C2	differentiated SH-SY5Y	MTT		0.1 µM	relative to: control	viability	101 ± 3.1%
CN1C(=O)[C@@H](Cc2ccc(O)cc2)NC(=O)CNC(=O)[C@H](Cc2ccc3ccccc3c2)NC(=O)[C@H](CCCNC(=N)N)NC(=O)[C@H]1CCCNC(=O)c1ccc(CNC(=O)CN2CCN(CC(=O)O)CCN(CC(=O)O)CCN(CC(=O)O)CC2)cc1 [gallium-68 labelled]	C-X-C chemokine receptor type 4 (CXCR4, Homo sapiens, UniProt P61073)	PET	human, NSCLC lesion			SUVmax	3.86
COc1ccc(CNc2nc(N3CCC[C@H]3CO)ncc2C(=O)NNC(=O)c2cnc(N3CCC[C@H]3CO)nc2NCc2ccc(OC)c(Cl)c2)cc1Cl	Salmonella typhimurium		TA102	250 µg/plate		revertant count	262 ± 8
CC(=O)N[C@@H](CO)C(=O)N[C@@H](CC(=O)O)C(=O)N[C@@H](CCCCNC(=O)CCCC[C@@H]1SC[C@@H]2NC(=O)N[C@@H]21)C(=O)N1CCC[C@H]1C(=O)O	A549	flow cytometry		1 mg/mL, 2 h, serum-free, added: NaN3 10 mM	relative to: no inhibitor	reduction of cellular uptake	> 80%
COc1ccc2c(=O)c(OC)c(-c3ccc(OC)c(OC)c3)oc2c1	differentiated SH-SY5Y	MTT		100 µM	relative to: control	viability	38.2 ± 1.9%
Nc1nc2c([C@@H]3O[C@@H]4COP(=O)(O)O[C@H]5[C@@H](O)[C@H](n6cnc7c(=O)[nH]c(N)nc76)O[C@@H]5COP(=O)(O)O[C@H]4[C@H]3O)snc2c(=O)[nH]1			water			absorption maximum	331 nm
CCC(=O)N(C)c1ccc(Cl)c(Cl)c1	Salmonella typhimurium	Ames test	TA1537	0.10 mg/plate, with rat liver S9		revertants	2 ± 1.2 revertants/plate
CC(C)[C@H](NC(=O)CNC(=O)[C@H](CCC(N)=O)NC(=O)[C@H](C)N)C(=O)O			human	intravenous infusion, 45 mg/kg/h, 2 h infusion		subjects with severe adverse events	0%
O=C(O)CCC(NP(=O)(O)OCCC[C@@H](NC(=O)CCC(NC(=O)CCCCCNC(=O)CCCCCNC(=O)c1ccc([18F])cc1)C(=O)O)C(=O)O)C(=O)O (stereo partly shown)	CWR22Rv1 tumour model		host not given, liver	intravenous, 1 h, tumour-bearing		tracer uptake	0.49 %ID/g
C=C(C)[C@@H]1CCC(CO)=C[C@H]1c1c(O)cc(CCCCC)cc1O	CYP2C19		human	750 mg single dose, alone, fluconazole arm baseline		half-life	1130 min
CN(C)CC1CCCCC1(O)c1cccc(O)c1 (stereo not shown)	P-glycoprotein		Caco-2 TC7	1 µM, 3 h, pH 7.4, added: cyclosporin A 10 µM		Papp B to A	19.3 ± 0.5 ×10⁻⁶ cm/s
Nc1nc2c([C@@H]3O[C@@H]4COP(=O)(O)O[C@H]5[C@@H](O)[C@H](c6snc7c(=O)[nH]c(N)nc67)O[C@@H]5COP(=O)(O)O[C@H]4[C@H]3O)snc2c(=O)[nH]1			water			absorption maximum	331 nm
C=C(C)[C@@H]1CCC(C(=O)O)=C[C@H]1c1c(O)cc(CCCCC)cc1O	CYP2C19			concentration not given, single dose, added: fluconazole steady state		decrease in AUC(0-tau)	34%
O=C(O)CCC(NP(=O)(O)OCCC[C@@H](NC(=O)CCC(NC(=O)c1ccc([18F])cc1)C(=O)O)C(=O)O)C(=O)O (stereo partly shown)	CWR22Rv1 tumour model		host not given, spleen	intravenous, 2 h, tumour-bearing		tracer uptake	0.87 %ID/g
CN[C@](C)(C[18F])C(=O)O	SK-OV-3 tumour model		host not given, kidney	15 min, tumour-bearing		tracer uptake	25 %ID/g
COc1ccc(CCNc2cc(-c3ccccc3)nc3ncnn23)cc1			mouse liver microsomes			intrinsic clearance	9.8 mL/min/g
CSCC[C@@H]1NC(=O)[C@@H]2CSSC[C@H](NC(=O)[C@H](CO)NC(=O)[C@H](C)N)C(=O)N[C@@H](CCCNC(=N)N)C(=O)N[C@@H]([C@@H](C)O)C(=O)N3CCC[C@H]3C(=O)N[C@@H](CCCCN)C(=O)N[C@@H](CC(=O)O)C(=O)N[C@H]3CSSC[C@H](NC(=O)[C@H](CCCCN)NC(=O)[C@H](CCCNC(=N)N)NC(=O)[C@H](CC(N)=O)NC1=O)C(=O)N[C@@H](CCCCN)C(=O)N[C@H]1CSSC[C@H](NC(=O)[C@@H]4CCCN4C(=O)[C@H](CC(=O)O)NC(=O)[C@H](C)NC3=O)C(=O)N[C@@H](C)C(=O)N[C@@H](CCCCN)C(=O)N[C@@H](CCC(=O)O)C(=O)N[C@@H]([C@@H](C)O)C(=O)NCC(=O)N[C@@H](CSSC[C@@H](C(N)=O)NC(=O)[C@H](CCCNC(=N)N)NC(=O)[C@H](CC(N)=O)NC1=O)C(=O)N1CCC[C@H]1C(=O)N[C@@H](Cc1ccc(O)cc1)C(=O)NCC(=O)N[C@@H](CCCCN)C(=O)N2			DA rat pristane-induced arthritis, serum	subcutaneous, 0.1 mg/kg every other day, 21 days		Creatinine	0.16 mg/dL
Cc1cccc(-c2nc(Nc3ccncn3)c3sccc3n2)n1			human liver microsomes			intrinsic clearance	3.6 mL/min/g
COC1=C[C@@H]2[C@@H]3Cc4ccc(OC)c(OC(=O)[C@@H]5CCCN5)c4[C@]2(CCN3C)CC1=O	RAW264.7	cytotoxicity, MTT		24 h		IC50	> 100 µM
COc1ccc(CNc2nc(N3CCC[C@H]3CO)ncc2C(=O)NN)cc1Cl	Salmonella typhimurium		TA98	1000 µg/plate, 48 h		revertant count	33 ± 4
O=C(O)CCC(NP(=O)(O)OCCC[C@@H](NC(=O)CCC(NC(=O)CCCCCNC(=O)c1ccc([18F])cc1)C(=O)O)C(=O)O)C(=O)O (stereo partly shown)	CWR22Rv1 tumour model		host not given, lung	intravenous, 1 h, tumour-bearing		tracer uptake	0.43 %ID/g
N[C@]1(c2ccccc2Cl)CCC[C@H](O)C1=O			Wistar rat, plasma	intravenous, 20 mg/kg		AUC(0-inf)	29200 ± 6420 ng·h/mL
COc1cc(C(=O)NCCOCCOCCOCCNC(=O)c2ccc([18F])nc2)ccc1NC(=O)C1NC(CC(C)(C)C)C(C#N)(c2ccc(Cl)cc2F)C1c1cccc(Cl)c1F (stereo not shown)	HepG2 tumour model		host not given, stomach	4 h, tumour-bearing		tracer uptake	0.94 %ID/g

Excerpt of the above:
Compound	target or system	assay	test system	conditions	how to read	measurement	result
CN[C@](C)(C[18F])C(=O)O	SK-OV-3 tumour model		host not given, kidney	15 min, tumour-bearing		tracer uptake	25 %ID/g
COc1cc2c(=O)cc(-c3ccccc3)oc2c2c1OC(C)(C)C=C2	differentiated SH-SY5Y	MTT		0.1 µM	relative to: control	viability	101 ± 3.1%
O=C(O)CCC(NP(=O)(O)OCCC[C@@H](NC(=O)CCC(NC(=O)CCCCCNC(=O)c1ccc([18F])cc1)C(=O)O)C(=O)O)C(=O)O (stereo partly shown)	CWR22Rv1 tumour model		host not given, lung	intravenous, 1 h, tumour-bearing		tracer uptake	0.43 %ID/g
COc1ccc(CNc2nc(N3CCC[C@H]3CO)ncc2C(=O)NNC(=O)c2cnc(N3CCC[C@H]3CO)nc2NCc2ccc(OC)c(Cl)c2)cc1Cl	Salmonella typhimurium		TA102	250 µg/plate		revertant count	262 ± 8
